Measured values from different studies.
Every numbered part comes from another study and shows a few of its results, in no order.

Set 1 — mode: inhibitor; concentration: 20 µM
Target: Replicase polyprotein 1ab, nsp13 helicase (rep, Severe acute respiratory syndrome coronavirus 2, UniProt P0DTD1)
| Structure (SMILES) | inhibition [%] |
| --- | --- |
| COc1cc2ncc(-c3ccccc3)nc2cc1OC | 1.42 |
| COc1cc(/C=C/C(=O)N2CCCCCCC2)cc(OC)c1OC | 7.94 |
| CCN(c1cc(C#CCN2CCOCC2)cc(C(=O)NCc2c(C)cc(C)[nH]c2=O)c1C)[C@H]1CC[C@H](N(C)CCOC)CC1 | 11 |
| Cc1ccsc1C(=CCCN1CCC[C@@H](C(=O)O)C1)c1sccc1C | 10.4 |
| Cc1ncc(NC(=O)c2ccc(CN3CCN(C)CC3)c(C(F)(F)F)c2)cc1Nc1nccc(-c2cccnc2)n1 | 1.55 |
| O=C(O)CCCCN(CCc1ccccc1OCc1ccc(CCc2ccccc2)cc1)Cc1ccc(C(=O)O)cc1 | 10.8 |
| CC(C)=CCC[C@](C)(O)[C@@H]1CC=C(C)CC1 | 3.67 |
| O=C(O)CCCc1ccccc1 | 4.99 |
| COc1cc(Cc2cnc(N)nc2N)cc(OC)c1OC | 3.06 |
| COc1cc(N)c(Cl)cc1C(=O)NC1CN2CCC1CC2 (stereo not drawn) | -1.82 |
| c1ccc2c(c1)CCC[C@H]2Nc1nc2ccccc2[nH]1 | -0.32 |
| NC(=O)N/N=C/c1ccc(Oc2ccc(F)cc2)cc1 | -3.78 |
| CCC(CC)Nc1nc(C)c(-c2ccc(OC(F)(F)F)cc2OC)nc1OC | 4.4 |
| Nc1[nH]nc2nnc(-c3c(-c4ccccc4)nn4ccccc34)cc12 | 0.27 |
| Cc1cn2c(N)c(Cl)cc(C(=O)NCC3CCN(CC(C)C)CC3)c2n1 | 8.93 |
| COc1ccc(C(C)(C)C)cc1CN[C@H]1C2CCN(CC2)[C@H]1C(c1ccccc1)c1ccccc1 | -2.88 |
| CCCCOc1ccc(OCCCN2CCOCC2)cc1 | -1.66 |
| Cc1noc(C)c1-c1cc(O)cc(C(O)c2ccccc2)c1 (stereo not drawn) | -1.89 |
| OC[C@H]1O[C@@H](c2ccc(Cl)c(Cc3ccc(O[C@H]4CCOC4)cc3)c2)[C@H](O)[C@@H](O)[C@@H]1O | 1.04 |
| COc1nccc(-c2c(-c3ccc(F)cc3)ncn2[C@H]2CC[C@H](O)CC2)n1 | -0.81 |
| O=C(CC12CC3CC(CC(C3)C1)C2)Nc1cccc2nc(NCCNCCO)ccc12 | 11.1 |
| CO[C@H]1O[C@@H]2O[C@@]3(C)CC[C@H]4[C@H](C)CC[C@@H]([C@H]1C)[C@@]24OO3 | 5.55 |
| Nc1nncs1 | 11.7 |
| CCCOc1ccc(Br)cc1-c1cc(-c2ccc(Cl)cc2)[nH]c1-c1ccncc1 | 4.64 |
| CC(C)c1cc2c(cc1S(=O)(=O)O)[C@@]1(C)CCC[C@@](C)(C(=O)O)[C@@H]1CC2 | 3.26 |

Set 2 — technique: protein-binding microarray; molecule type: double-stranded DNA, one strand shown; sample: in vitro; concentration: 2540 nM top; notes: 60-bp whole probe; added: salmon DNA 0.4 mg/ml; relative to: random background probes; reading: higher = stronger binding; shared flanks, not repeated: GCCTAGCAC … GTCTTGATTCGCTTGACGCTGCTG
Target: Interferon regulatory factor 3, full length, phosphomimetic (IRF3, Homo sapiens, UniProt Q14653, residues 1-427, S386D/S396D/S398D/S402D/T404D/S405D)
Target sequence (chain): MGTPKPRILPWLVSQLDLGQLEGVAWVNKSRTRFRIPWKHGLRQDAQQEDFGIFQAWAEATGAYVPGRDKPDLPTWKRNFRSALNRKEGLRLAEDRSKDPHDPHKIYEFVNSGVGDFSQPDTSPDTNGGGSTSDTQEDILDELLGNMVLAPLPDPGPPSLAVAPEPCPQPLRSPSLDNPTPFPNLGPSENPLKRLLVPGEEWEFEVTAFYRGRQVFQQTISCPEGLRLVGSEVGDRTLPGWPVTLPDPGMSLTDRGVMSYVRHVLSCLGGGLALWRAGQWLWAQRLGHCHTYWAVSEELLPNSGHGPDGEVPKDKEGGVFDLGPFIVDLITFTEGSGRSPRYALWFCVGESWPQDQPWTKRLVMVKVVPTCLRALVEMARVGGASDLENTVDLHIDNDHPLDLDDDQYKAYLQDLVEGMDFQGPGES
| Oligonucleotide | fitted relative affinity [z-score] |
| --- | --- |
| GGCGGACTGGGTATCGGGACGTGCTAG | -0.562 |
| GACGGACTGCGGTATCGGGACGTGCTA | 0.068 |
| GACGGACTGCTACTGCTGAGGTGCTAG | -0.839 |
| GGCGGTATCGGGTTTCGGGACGTGCTA | 3.09 |
| TGTGCTTTCCTGATGGTTTTGTGCTAG | 1.39 |
| TTACATTCCAGTTTCGATTAGTGCTAG | 5.02 |
| TTAGATTTCGGTTCCGGTTAGTGCTAG | 7.3 |
| TTAGGTATCGACTTTCGATTAGTGCTA | 1.49 |

Set 3 — technique: protein binding microarray; molecule type: double-stranded DNA, one strand shown; sample: in vitro; concentration: not given; relative to: not given; reading: higher = stronger binding
Target: Histone acetyltransferase KAT6A, winged helix 1, GST fusion (KAT6A, Homo sapiens, UniProt Q92794, residues 1-85)
Notes: 8-mer, flanks averaged, mean of 2 arrays, mostly near background
Construct (chain): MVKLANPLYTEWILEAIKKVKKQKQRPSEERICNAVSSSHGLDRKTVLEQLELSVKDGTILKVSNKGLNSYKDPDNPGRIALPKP
| Oligonucleotide | E-score |
| --- | --- |
| ATCTAACC | 0.0549 |
| CTTTGCGA | 0.0755 |
| TAGTCACA | -0.21 |
| AACTATCG | -0.0237 |
| ATTAATGG | -0.0748 |
| CGAGTAAA | -0.053 |
| AAATTATG | 0.0216 |
| CACTCCTA | -0.0166 |

Set 4 — technique: RNA Bind-n-Seq; molecule type: RNA; sample: in vitro; concentration: 365 nM; relative to: no-protein control; reading: higher = stronger binding
Target: RNA binding protein fox-1 homolog 2, RRM domain, GST-SBP tag (RBFOX2, Homo sapiens, UniProt O43251-10, residues 100-194)
Notes: natural RNA segment, single round, ends assumed
Construct (chain): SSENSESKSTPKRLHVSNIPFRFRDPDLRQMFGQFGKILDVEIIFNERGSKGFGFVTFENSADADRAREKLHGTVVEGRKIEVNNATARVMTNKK
| Oligonucleotide | RBNS enrichment (R) |
| --- | --- |
| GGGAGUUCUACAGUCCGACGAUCCUGCUCACACCUGGUCCCCUAGCCUUUUCUCUUGGGCAGUGUAGUAGUAUGGGCGAGCCACCCUCAGCUCUUUUAUUGGCCGGGGCUAUAAACCAUGGCUGGGCAUAACUUGGAAUUCUCGGGUGCCAA | 0.264 |
| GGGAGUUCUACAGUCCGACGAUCGCUGUGGGGUCCAAAACCCUAAGGGCUCCAAUCCCACCCACAUUCUUUCUCGGUCUUUGUCUCUCUUUCUUCCUUUCCUUUCUAUUUCCCCCAGGGUCUCCUGUUAACCAUGGAAUUCUCGGGUGCCAA | 0.812 |
| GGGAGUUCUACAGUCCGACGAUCACUAUCCACAGAUAUAGCCAAGUAGAUUUGGGUAGAGGAUACUAUUUCCAGAAUAGUGUUUAGCUCACCUAGGGGGAUAUGUUUGUAUACACAUUUGCAUAUACCCACAUUGGAAUUCUCGGGUGCCAA | 0.292 |
| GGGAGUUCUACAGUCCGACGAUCAAAGUUUAAAGAUGUCUUCAAAGAAGACUAGAGUCUUUAAGUCACUUAUAGCUAUAUUUUACUACAAAAUUUGUGUAUAAAGAUAUAUUUAAGUGUUUUAGAUAAAUUUAUGGAAUUCUCGGGUGCCAA | 0.785 |
| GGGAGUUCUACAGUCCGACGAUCGCUUGUAUAUAUAUUUUUAAAAAUCUACCUGUUCCUGACUUAAAACAAAAGGAAAGAAACUACCUUUUUAUAAUGCACAACUGUUGAUGGUAGGCUGUAUAGUUUUUAGUUGGAAUUCUCGGGUGCCAA | 0.923 |
| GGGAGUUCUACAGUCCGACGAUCCCUUGCUGCAAACCCAUGAAGCUGGCCCUCAGCUCCCUGACCCCCUGUCCUAGGUCAUGAAGGACACUCUGCAGGGUGAAGCACCAGGGAGAGGCCUCGGCUGUCUCCUGUGGAAUUCUCGGGUGCCAA | 0.452 |
| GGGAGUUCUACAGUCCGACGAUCGCCCCUGCCGCGCGGGGGGCUGGGUCUGGUUGAGUCGCUGCUUUCCCGAGGGCAGCGCAGGGAUCCGGGGAAGCUGCGGCAGGGAGCGGGCGCCGGCUUCGUGGCUCUGAUGGAAUUCUCGGGUGCCAA | 0.632 |
| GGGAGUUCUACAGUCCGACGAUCCCUGCCCAAACUGUCCAUUCCAGCAGCUCCUGCCCCCUUCUCUGUACUUGCUUCUGUCUGACACCUUCUCCCUGUUGGCCUGAAGGGAGCUUAGAAUGCAGCCCUACCUGUGGAAUUCUCGGGUGCCAA | 1.4 |

Set 5 — technique: universal PBM; molecule type: double-stranded DNA, one strand shown; sample: in vitro; concentration: 600 nM; reading: higher = stronger binding
Target: Sal-like protein 4, full length isoform A (SALL4, Homo sapiens, UniProt Q9UJQ4, residues 1-1053)
UniProt Q9UJQ4, sequence (whole entry, looked up): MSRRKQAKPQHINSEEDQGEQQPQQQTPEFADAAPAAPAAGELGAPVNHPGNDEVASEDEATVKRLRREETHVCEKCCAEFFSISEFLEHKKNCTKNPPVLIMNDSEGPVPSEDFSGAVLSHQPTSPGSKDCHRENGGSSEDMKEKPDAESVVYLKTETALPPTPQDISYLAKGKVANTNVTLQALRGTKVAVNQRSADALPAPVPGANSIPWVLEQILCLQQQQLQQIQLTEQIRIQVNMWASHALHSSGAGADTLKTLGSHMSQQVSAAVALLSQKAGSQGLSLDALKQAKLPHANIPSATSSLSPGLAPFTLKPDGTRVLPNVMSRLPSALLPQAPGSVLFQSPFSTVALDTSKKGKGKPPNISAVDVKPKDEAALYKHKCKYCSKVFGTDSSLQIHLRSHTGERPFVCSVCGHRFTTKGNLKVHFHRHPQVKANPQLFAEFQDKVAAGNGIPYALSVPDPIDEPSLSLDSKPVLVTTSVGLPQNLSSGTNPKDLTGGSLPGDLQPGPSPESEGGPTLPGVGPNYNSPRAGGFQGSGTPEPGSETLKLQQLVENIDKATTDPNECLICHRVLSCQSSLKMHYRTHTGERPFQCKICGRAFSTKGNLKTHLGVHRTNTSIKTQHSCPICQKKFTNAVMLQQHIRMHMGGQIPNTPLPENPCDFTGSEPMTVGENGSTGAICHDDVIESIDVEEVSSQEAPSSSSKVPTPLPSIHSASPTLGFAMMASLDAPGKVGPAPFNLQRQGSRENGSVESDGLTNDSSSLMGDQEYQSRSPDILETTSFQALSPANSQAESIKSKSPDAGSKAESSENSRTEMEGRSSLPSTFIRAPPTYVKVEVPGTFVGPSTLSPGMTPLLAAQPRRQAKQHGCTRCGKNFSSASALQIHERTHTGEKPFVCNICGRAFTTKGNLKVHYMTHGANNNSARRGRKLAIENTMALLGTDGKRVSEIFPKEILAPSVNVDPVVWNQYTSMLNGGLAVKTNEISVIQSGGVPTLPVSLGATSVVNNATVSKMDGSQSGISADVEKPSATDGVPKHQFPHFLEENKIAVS
Notes: 8-mer, flanks averaged, mean of replicates
| Oligonucleotide | E-score |
| --- | --- |
| GCGCTCTA | -0.126 |
| GGTATGAA | 0.226 |
| GATCTAGC | -0.217 |
| AAGATATC | 0.211 |
| CGTACCGC | -0.225 |
| ACAAGTGC | -0.082 |
| AACAACAA | 0.226 |

Mixed results
| Structure (SMILES) | organism | assay | system | conditions | endpoint | value |
| --- | --- | --- | --- | --- | --- | --- |
| NC[C@H](O)c1ccc(O)c(O)c1 | SARS-CoV-2 | cytopathic effect | Vero E6 | 10 µM | inhibition | -1.6% |

For quick reference, copied from above (set 1):
| Structure (SMILES) | inhibition [%] |
| --- | --- |
| COc1cc(N)c(Cl)cc1C(=O)NC1CN2CCC1CC2 (stereo not drawn) | -1.82 |
| c1ccc2c(c1)CCC[C@H]2Nc1nc2ccccc2[nH]1 | -0.32 |
| NC(=O)N/N=C/c1ccc(Oc2ccc(F)cc2)cc1 | -3.78 |
